{"data": "Assay results from different studies", "organism": "Staphylococcus aureus", "note": "Each line is one published result; not all experiments were run side by side. ± gives the spread as reported."}
{"Compound": "CN(C)c1cc(CNCc2ccccc2)c(O)c2c1C[C@H]1C[C@H]3[C@H](N(C)C)C(O)=C(C(N)=O)C(=O)[C@@]3(O)C(O)=C1C2=O", "assay": "microbial growth", "system": "MRSA", "MIC": "0.25 µg/mL"}
{"Compound": "CC[C@H](C)[C@H](N)C1=N[C@H](C(=O)N[C@@H](CC(C)C)C(=O)N[C@H](CCC(=O)O)C(=O)N[C@H](C(=O)N[C@H]2CCCCNC(=O)[C@H](CC(N)=O)NC(=O)[C@@H](CC(=O)O)NC(=O)[C@H](Cc3c[nH]cn3)NC(=O)[C@@H](Cc3ccccc3)NC(=O)[C@H]([C@@H](C)CC)NC(=O)[C@@H](CCCN)NC2=O)[C@@H](C)CC)CS1", "system": "USA300 MRSA, LB broth", "setting": "18 h, 37 °C, with: 0.3 mM ZnSO4", "MIC": "2 µg/mL"}
{"Compound": "CC(C)CCCCCCCCC/C=C/C(=O)N[C@@H](CC(=O)O)C(=O)N[C@H]1CNC(=O)[C@@H]2CCCN2C(=O)[C@H](C(C)C)NC(=O)[C@@H]([C@@H](C)O)NC(=O)CNC(=O)[C@H](CC(=O)O)NC(=O)CNC(=O)[C@H](CC(=O)O)NC(=O)CNC(=O)[C@H]2CCCCN2C1=O", "system": "MRSA USA300", "setting": "with: Ca2+ 10 mM", "MIC": "2 µg/mL"}
{"Compound": "O=C1NC(=O)N(/N=C/c2ccc([N+](=O)[O-])o2)C1O (stereo not shown)", "assay": "microbial growth, broth dilution", "system": "ATCC29213", "setting": "18 h", "MIC": "50 µg/mL"}
{"Compound": "CN(C)c1cc(CNC2CCCC2)c(O)c2c1C[C@H]1C[C@H]3[C@H](N(C)C)C(O)=C(C(N)=O)C(=O)[C@@]3(O)C(O)=C1C2=O", "system": "MRSA 5, Tet M, 50% human serum", "MIC": "4 µg/mL"}
{"Compound": "COc1cc(Cc2cnc(N)nc2N)cc(/C=C/C(=O)N2N=Cc3ccccc3C2c2ccccc2)c1OC (stereo not shown)", "assay": "microbial growth, broth dilution", "system": "ATCC29213", "setting": "pH 5.8", "MIC": "0.5 µg/mL"}
{"Compound": "CC(=O)NCc1cc(N(C)C)c2c(c1O)C(=O)C1=C(O)[C@]3(O)C(=O)C(C(N)=O)=C(O)[C@@H](N(C)C)[C@@H]3C[C@@H]1C2", "system": "MRSA 5, Tet M ribosome protection", "MIC": "> 64 µg/mL"}
{"Compound": "CN1/C(=C/C=C/c2cc(-c3ccccc3)cc(-c3ccccc3)[o+]2)C(C)(C)c2ccccc21", "assay": "broth dilution", "system": "HFH-30123, MRSA", "MIC": "0.5 µg/mL"}
{"Compound": "CCCCCCCCCCN1C(=O)/C(=N\\NC(N)=S)c2cc(C)ccc21", "assay": "microbial growth, broth dilution", "setting": "18 h", "MIC": "> 192 µg/mL"}
{"Compound": "CNC(CC(C)C)C(=O)NC1C(=O)NC(CC(N)=O)C(=O)NC2C(=O)NC3C(=O)NC(C(=O)NC(C(=O)O)c4cc(O)cc(O)c4-c4cc3ccc4O)C(O)c3ccc(c(Cl)c3)Oc3cc2cc(c3OC2OC(CO)C(O)C(O)C2OC2CC(C)(NC(=O)CCCCCCCC[n+]3ccccc3)C(O)C(C)O2)Oc2ccc(cc2Cl)C1O (stereo not shown)", "assay": "agar dilution", "system": "MRSA clinical isolate MRSA3", "MIC": "512 µg/mL"}
{"Compound": "COc1cc(NC(=O)CSc2nc3ccccc3c(=O)n2-c2ccc(S(N)(=O)=O)cc2)cc(OC)c1", "system": "methicillin-resistant", "setting": "24 h, 37 °C", "MIC": "12.5 µg/mL"}
{"Compound": "CCCCN(CCCC)CC(O)COc1c2ccoc2c(OC)c2oc(CC)cc(=O)c12 (stereo not shown)", "assay": "microbial growth, broth dilution", "system": "ATCC6538", "setting": "19 h", "MIC": "256 µg/mL"}
{"Compound": "CCn1[c]([Au-]([Cl])([Cl])[Cl])[n+](CC)c2ccc(C(=O)OC)cc21", "assay": "broth dilution", "system": "MRSA DSM 11822", "setting": "20 h, 37 °C", "MIC": "1.6 ± 0.5 µM"}
{"Compound": "CO[C@H]1[C@H](O)[C@@H](N)[C@@H](O[C@H]2[C@H](O[C@@H]3O[C@H](CO)[C@@H](O[C@H]4O[C@@H](CN)[C@@H](O)[C@H](O)[C@H]4N)[C@H]3O)[C@@H](O)[C@H](N)C[C@@H]2N)O[C@@H]1CO", "assay": "broth microdilution", "system": "MRSA isolate AG 044", "MIC": "32 µg/mL"}
{"Compound": "Cc1ccc(C(=O)Sc2cccccc2=O)cc1", "system": "ATCC 29213", "MIC": "< 20 µM"}
{"Compound": "CN1CCC(NCCC2(Cc3ccc(Cl)cc3)CCCCC2)CC1", "assay": "microbial growth", "system": "MRSA", "setting": "10 h", "MIC": "200 µM"}
{"Compound": "CN(C)c1cc(CNCc2ccco2)c(O)c2c1C[C@H]1C[C@H]3[C@H](N(C)C)C(O)=C(C(N)=O)C(=O)[C@@]3(O)C(O)=C1C2=O", "system": "RN4250, Tet K efflux", "MIC": "1 µg/mL"}
{"Compound": "CCCCCCCCCc1nc2ccc(Cl)cc2c(=O)n1N", "assay": "broth microdilution", "system": "RN6390B", "MIC": "> 100 µM"}
{"Compound": "CN(C)c1cc(CNC2CCCCC2)c(O)c2c1C[C@H]1C[C@H]3[C@H](N(C)C)C(O)=C(C(N)=O)C(=O)[C@@]3(O)C(O)=C1C2=O", "system": "RN4250, Tet K efflux", "MIC": "1 µg/mL"}
{"Compound": "CC1CCN(CCCN2/C(=C/c3cc(/C=C/c4c[nH]c5ccccc45)[n+](C)c4ccccc34)Sc3ccccc32)CC1", "assay": "microbial growth, broth dilution", "system": "ATCCBAA41 MRSA", "MIC": "16 µg/mL"}
{"Compound": "CC(C)c1ccc2c(c1)CCC1C(C)(CN(CC(O)C[N+](C)(C)C)CC(O)C[N+](C)(C)C)CCCC21C (stereo not shown)", "assay": "microbial growth, broth dilution", "system": "ATCC29213", "setting": "16 h", "MIC": "31.3 µg/mL"}
{"Compound": "COc1ccccc1C(=O)c1c(-n2c(C(=O)c3ccccc3OC)cc(Cl)c2Cl)c(Cl)c(Cl)n1C", "assay": "microbial growth, broth dilution", "system": "NCTC8325", "setting": "20 h", "MIC": "> 64 µg/mL"}
{"Compound": "CN(C)c1cc(CNCC2CCCCC2)c(O)c2c1C[C@H]1C[C@H]3[C@H](N(C)C)C(O)=C(C(N)=O)C(=O)[C@@]3(O)C(O)=C1C2=O", "assay": "microbial growth", "system": "MRSA", "MIC": "1 µg/mL"}
{"Compound": "CNC(CC(C)C)C(=O)NC1C(=O)NC(CC(N)=O)C(=O)NC2C(=O)NC3C(=O)NC(C(=O)NC(C(=O)O)c4cc(O)cc(O)c4-c4cc3ccc4O)C(O)c3ccc(c(Cl)c3)Oc3cc2cc(c3OC2OC(CO)C(O)C(O)C2OC2CC(C)(NC(=O)CCCC[n+]3ccccc3)C(O)C(C)O2)Oc2ccc(cc2Cl)C1O (stereo not shown)", "assay": "agar dilution", "system": "MRSA clinical isolate MRSA3", "MIC": "64 µg/mL"}
{"Compound": "CC(C)C[C@H](NC(=O)[C@H](CC(N)=O)NC(=O)[C@H](CCCNC(=N)N)NC(=O)[C@@H](CC(C)C)NC(=O)[C@H](Cc1ccc(-c2ccccc2)cc1)NC(=O)[C@H](CC(=O)O)NC(=O)[C@H](CCCCN)NC(=O)[C@@H](CC(C)C)NC(=O)[C@H](CCCNC(=N)N)NC(=O)[C@H](CCC(N)=O)NC(=O)[C@@H](NC(=O)[C@@H](CC(C)C)NC(=O)[C@H](CCCNC(=N)N)NC(=O)[C@H](CCCCN)NC(=O)[C@H](Cc1ccc(-c2ccccc2)cc1)NC(=O)CN)C(C)C)C(=O)N[C@H](C(N)=O)C(C)C", "system": "USA300 LAC", "setting": "overnight, trypsin pretreated", "MIC": "8 µM"}
{"Compound": "O=C1c2ccccc2C(=O)c2c1ccc1c2C(C(=O)Nc2ccccc2Cl)C(=O)C1c1ccccc1 (stereo not shown)", "assay": "microbial growth", "MIC": "64 µg/mL"}
{"Compound": "CN(C)c1cc(CN2CCOCC2)c(O)c2c1C[C@H]1C[C@H]3[C@H](N(C)C)C(O)=C(C(N)=O)C(=O)[C@@]3(O)C(O)=C1C2=O", "assay": "microbial growth, broth dilution", "MIC": "2 µg/mL"}
{"Compound": "CC1OCC2OC(OC3C(N)CC(N)C(O)C3OC3OC(CO)C(OC4OC(CN)C(O)C(O)C4N)C3O)C(N)C(O)C2O1 (stereo not shown)", "assay": "broth microdilution", "system": "MRSA isolate AG 045", "MIC": "16 to 32 µg/mL"}
{"Compound": "CN[C@H](CC(C)C)C(=O)N[C@H]1C(=O)N[C@@H](CC(N)=O)C(=O)N[C@H]2C(=O)N[C@H]3C(=O)N[C@H](C(=O)N[C@H](C(=O)O)c4cc(O)cc(O)c4-c4cc3ccc4O)[C@H](O)c3ccc(c(Cl)c3)Oc3cc2cc(c3O[C@@H]2O[C@H](CO)[C@@H](O)[C@H](O)[C@H]2O[C@H]2C[C@](C)(N)[C@H](O)[C@H](C)O2)Oc2ccc(cc2Cl)[C@H]1O", "assay": "microbial growth, broth dilution", "system": "MRSA USA300", "MIC": "0.5 µg/mL"}
{"Compound": "C=C(NC(=O)C(=C)NC(=O)c1csc(C2=NC3c4csc(n4)C4NC(=O)c5csc(n5)C(C(C)(O)C(C)O)NC(=O)C5CSC(=N5)C(=CC)NC(=O)C(C(C)O)NC(=O)c5csc(n5)C3(CC2)NC(=O)C(C)NC(=O)C(=C)NC(=O)C(CCSC)NC(=O)C(C(C)CC)NC2C=Cc3c(C(C)O)cc(nc3C2O)C(=O)OC4C)n1)C(N)=O (stereo not shown)", "assay": "broth microdilution", "system": "ATCC 10537 MRSA", "setting": "18 h, 37 °C", "MIC": "0.014 µg/mL"}
{"Compound": "CCCCCCCCCc1nc2cc(Cl)ccc2c(=O)n1OC", "assay": "broth microdilution", "system": "RN6390B", "MIC": "> 100 µM"}
